# Measurements from different studies.
# Compare with care: the assays were run in different laboratories.
# Organism: Enterococcus faecium
SMILES,assay,system,conditions,how to read,MIC
CC[C@H](C)[C@H](NC(=O)[C@H](CC(C)C)NC(=O)[C@H](CCCNC(=N)N)NC(=O)[C@@H](N)CCCNC(=N)N)C(=O)N[C@@H](CC(C)C)C(=O)N[C@H](C(=O)N[C@@H](CCCCN)C(=O)N[C@H](C(=O)NCC(=O)N1CCC[C@H]1C(=O)N[C@H](C(=O)N[C@H](C(=O)N[C@@H](Cc1ccc(O)cc1)C(=O)N[C@@H](CCCCN)C(=O)N[C@@H](Cc1ccc(O)cc1)C(=O)N[C@@H](Cc1ccccc1)C(=O)N[C@@H](CCCCN)C(=O)N[C@@H](CCCCN)C(=O)N[C@@H](CCC(N)=O)C(=O)N[C@@H](CC(C)C)C(=O)N[C@@H](CC(C)C)C(=O)N[C@@H](CCCCN)C(=O)N[C@@H](CC(C)C)C(N)=O)[C@@H](C)CC)[C@@H](C)CC)[C@@H](C)O)[C@@H](C)O,,"ATCC 51559, vancomycin-resistant, Mueller-Hinton broth",24 h,,8 µM
CS(=O)(=O)Nc1ncn(-c2cc(F)c(COc3ccc(OS(=O)(=O)F)cc3)c(F)c2)n1,,,,,> 50 µM
CCCCCCCCCC(=O)N[C@@H](Cc1c[nH]c2ccccc12)C(=O)N[C@H](CC(N)=O)C(=O)N[C@@H](CC(=O)O)C(=O)N[C@@H]1C(=O)NCC(=O)N[C@@H](CCCN)C(=O)N[C@@H](CC(=O)O)C(=O)N[C@H](C)C(=O)N[C@@H](CC(=O)O)C(=O)NCC(=O)N[C@H](CO)C(=O)N[C@@H]([C@H](C)CC(=O)O)C(=O)N[C@@H](CC(=O)c2ccccc2N)C(=O)O[C@@H]1C,,resistant isolate,"16 h, with: Ca2+ 5 mM",,4 µg/mL
CN[C@H](CC(C)C)C(=O)N[C@H]1C(=O)N[C@@H](CC(N)=O)C(=O)N[C@H]2C(=O)N[C@H]3C(=O)N[C@H](C(=O)N[C@H](C(=O)O)c4cc(O)cc(O)c4-c4cc3ccc4O)[C@H](O)c3ccc(c(Cl)c3)Oc3cc2cc(c3O[C@@H]2O[C@H](CO)[C@@H](O)[C@H](O)[C@H]2O[C@H]2C[C@](C)(N)[C@H](O)[C@H](C)O2)Oc2ccc(cc2Cl)[C@H]1O,,VanA vancomycin-resistant,,,> 16 µg/mL
CN[C@H](CC(C)C)C(=O)N[C@H]1C(=O)N[C@@H](CC(N)=O)C(=O)N[C@H]2C(=O)NC3C(=O)N[C@H](C(=O)N[C@H](C(=O)NCCC[N+](C)(C)C)c4cc(O)cc(O)c4-c4cc3ccc4O)[C@H](O)c3ccc(c(Cl)c3)Oc3cc2cc(c3OC2OC(CO)C(O)[C@H](O)[C@@H]2O[C@H]2CC(C)(NCc3ccc(-c4ccc(Cl)cc4)cc3)[C@H](O)[C@H](C)O2)Oc2ccc(cc2Cl)[C@H]1O (stereo partly drawn),,ATCC BAA-2317 vanA,with: 100 µg/mL NaH2PO4 plus LTA,,0.3 µg/mL
CC[C@H](C)[C@H](NC(=O)[C@H](CC(C)C)NC(=O)[C@H](CCCNC(=N)N)NC(=O)[C@@H](N)CCCNC(=N)N)C(=O)N[C@@H](CCCNC(=N)N)C(=O)N[C@H](C(=O)N[C@@H](CCCCN)C(=O)N[C@H](C(=O)NCC(=O)N1CCC[C@H]1C(=O)N[C@H](C(=O)N[C@H](C(=O)N[C@@H](Cc1ccc(O)cc1)C(=O)N[C@@H](CCCCN)C(=O)N[C@@H](Cc1ccc(O)cc1)C(=O)N[C@@H](Cc1ccccc1)C(=O)N[C@@H](CCCCN)C(=O)N[C@@H](CCCCN)C(=O)N[C@@H](CCC(N)=O)C(=O)N[C@@H](CC(C)C)C(=O)N[C@@H](CC(C)C)C(=O)N[C@@H](CCCCN)C(=O)N[C@@H](CCCCN)C(N)=O)[C@@H](C)CC)[C@@H](C)CC)[C@@H](C)O)[C@@H](C)O,,"ATCC 51559, vancomycin-resistant, Mueller-Hinton broth",24 h,,16 µM
CC(C)C[C@H](NC(=O)[C@@H](NC(=O)[C@H](CCCNC(=N)N)NC(=O)[C@H](CCC(N)=O)NC(=O)[C@H](Cc1ccccc1)NC(=O)[C@H](Cc1ccc(O)cc1)NC(=O)[C@H](CC(N)=O)NC(=O)[C@H](Cc1c[nH]c2ccccc12)NC(=O)[C@@H](NC(=O)[C@H](CCCNC(=N)N)NC(=O)[C@H](CCCCN)NC(=O)[C@@H](N)Cc1ccccc1)C(C)C)C(C)C)C(=O)N[C@H](C(=O)N[C@@H](CCCCN)C(=O)N[C@@H](CCCCN)C(N)=O)C(C)C,broth dilution,KCTC 13225,,,6.3 µM
CCCCCCC#Cc1cncc(-c2nnc(SCc3cc(C(F)(F)F)cc(C(F)(F)F)c3)n2CCCN)c1,broth microdilution,ATCC 51559 MDR VRE,"18 to 24 h, 37 °C",,8 µg/mL
CC[C@H](C)[C@H](NC(=O)[C@H](CC(C)C)NC(=O)[C@H](CCCNC(=N)N)NC(=O)[C@@H](N)CCCNC(=N)N)C(=O)N[C@@H](CCCNC(=N)N)C(=O)N[C@@H](CCCCN)C(=O)N[C@@H](CC(C)C)C(=O)N[C@@H](CCCCN)C(=O)NCC(=O)N1CCC[C@H]1C(=O)N[C@H](C(=O)N[C@H](C(=O)N[C@@H](Cc1ccc(O)cc1)C(=O)N[C@@H](CC(C)C)C(=O)N[C@@H](Cc1ccc(O)cc1)C(=O)N[C@@H](Cc1ccccc1)C(=O)N[C@@H](CCCCN)C(=O)N[C@@H](CC(C)C)C(=O)N[C@@H](CCC(N)=O)C(=O)N[C@@H](CC(C)C)C(=O)N[C@@H](CC(C)C)C(=O)N[C@@H](CCCCN)C(=O)N[C@@H](CCCCN)C(N)=O)[C@@H](C)CC)[C@@H](C)CC,,"ATCC 51559, vancomycin-resistant, Mueller-Hinton broth",24 h,,16 µM
Oc1c(Cl)cc(Cl)cc1-c1[nH]c(Cl)c(Cl)c1Cl,,ATCC 6569,,,4 µM
CC[C@H](C)[C@H](NC(=O)CN)C(=O)NCC(=O)N[C@@H](CCCCN)C(=O)N[C@@H](Cc1ccccc1)C(=O)N[C@@H](CC(C)C)C(=O)N[C@@H](CCCCN)C(=O)N[C@@H](CCCCN)C(=O)N[C@@H](C)C(=O)N[C@@H](CCCCN)C(=O)N[C@@H](CCCCN)C(=O)N[C@@H](Cc1ccccc1)C(=O)NCC(=O)N[C@@H](CCCCN)C(=O)N[C@@H](C)C(=O)N[C@@H](Cc1ccccc1)C(=O)N[C@H](C(=O)N[C@@H](CCCCN)C(=O)N[C@H](C(=O)N[C@@H](CC(C)C)C(=O)N[C@@H](CCCCN)C(=O)N[C@@H](CCCCN)C(N)=O)[C@@H](C)CC)C(C)C,broth dilution,KCTC 13225,,,6.3 µM
CCCCCCC#Cc1cncc(-c2nnc(SCc3cc([N+](=O)[O-])cc([N+](=O)[O-])c3)n2CCOC2OC(CN)C(O)C2O)c1 (stereo not drawn),broth microdilution,ATCC 51559 MDR VRE,"18 to 24 h, 37 °C",,32 µg/mL
CCCCCCC#Cc1cncc(-c2nnc(SCc3cc([N+](=O)[O-])cc([N+](=O)[O-])c3)n2C)c1,,vancomycin-resistant,,no activity at value,≥ 20 µg/mL
CC[C@H](C)[C@H](NC(=O)[C@H](CC(C)C)NC(=O)[C@H](CCCNC(=N)N)NC(=O)[C@@H](N)CCCNC(=N)N)C(=O)N[C@@H](CCCNC(=N)N)C(=O)N[C@@H](CCCCN)C(=O)N[C@@H](CC(C)C)C(=O)N[C@@H](CCCCN)C(=O)NCC(=O)N[C@@H](CC(C)C)C(=O)N[C@@H](CCCCN)C(=O)N[C@@H](CCCCN)C(=O)N[C@@H](Cc1ccc(O)cc1)C(=O)N[C@@H](CC(C)C)C(=O)N[C@@H](Cc1ccc(O)cc1)C(=O)N[C@@H](Cc1ccccc1)C(=O)N[C@@H](CCCCN)C(=O)N[C@@H](CC(C)C)C(=O)N[C@@H](CCC(N)=O)C(=O)N[C@@H](CC(C)C)C(=O)N[C@@H](CC(C)C)C(=O)N[C@@H](CCCCN)C(=O)N[C@@H](CCCCN)C(N)=O,,"ATCC 51559, vancomycin-resistant, Mueller-Hinton broth",24 h,,4 µM
CCCCCCC#Cc1cncc(-c2nnc(SCc3cc([N+](=O)[O-])cc([N+](=O)[O-])c3)n2CCCN)c1,broth microdilution,ATCC 51559 MDR VRE,"18 to 24 h, 37 °C",,16 µg/mL

# Excerpt of the above:
SMILES,assay,system,conditions,how to read,MIC
Oc1c(Cl)cc(Cl)cc1-c1[nH]c(Cl)c(Cl)c1Cl,,ATCC 6569,,,4 µM
CCCCCCCCCC(=O)N[C@@H](Cc1c[nH]c2ccccc12)C(=O)N[C@H](CC(N)=O)C(=O)N[C@@H](CC(=O)O)C(=O)N[C@@H]1C(=O)NCC(=O)N[C@@H](CCCN)C(=O)N[C@@H](CC(=O)O)C(=O)N[C@H](C)C(=O)N[C@@H](CC(=O)O)C(=O)NCC(=O)N[C@H](CO)C(=O)N[C@@H]([C@H](C)CC(=O)O)C(=O)N[C@@H](CC(=O)c2ccccc2N)C(=O)O[C@@H]1C,,resistant isolate,"16 h, with: Ca2+ 5 mM",,4 µg/mL
